# Measurements gathered from unrelated publications.
# Parts stem from different laboratories: compare values within a part only.
# UniProt Q9HC98, sequence (whole entry, looked up): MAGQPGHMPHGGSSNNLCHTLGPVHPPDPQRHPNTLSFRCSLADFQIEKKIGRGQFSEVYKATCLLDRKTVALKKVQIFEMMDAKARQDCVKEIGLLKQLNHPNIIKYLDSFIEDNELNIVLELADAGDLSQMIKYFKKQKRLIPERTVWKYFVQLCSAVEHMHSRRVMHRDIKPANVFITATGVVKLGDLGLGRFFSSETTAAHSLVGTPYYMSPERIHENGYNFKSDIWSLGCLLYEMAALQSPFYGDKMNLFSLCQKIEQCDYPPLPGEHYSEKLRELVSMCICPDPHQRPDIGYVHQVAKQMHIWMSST
# UniProt P07949, sequence (whole entry, looked up): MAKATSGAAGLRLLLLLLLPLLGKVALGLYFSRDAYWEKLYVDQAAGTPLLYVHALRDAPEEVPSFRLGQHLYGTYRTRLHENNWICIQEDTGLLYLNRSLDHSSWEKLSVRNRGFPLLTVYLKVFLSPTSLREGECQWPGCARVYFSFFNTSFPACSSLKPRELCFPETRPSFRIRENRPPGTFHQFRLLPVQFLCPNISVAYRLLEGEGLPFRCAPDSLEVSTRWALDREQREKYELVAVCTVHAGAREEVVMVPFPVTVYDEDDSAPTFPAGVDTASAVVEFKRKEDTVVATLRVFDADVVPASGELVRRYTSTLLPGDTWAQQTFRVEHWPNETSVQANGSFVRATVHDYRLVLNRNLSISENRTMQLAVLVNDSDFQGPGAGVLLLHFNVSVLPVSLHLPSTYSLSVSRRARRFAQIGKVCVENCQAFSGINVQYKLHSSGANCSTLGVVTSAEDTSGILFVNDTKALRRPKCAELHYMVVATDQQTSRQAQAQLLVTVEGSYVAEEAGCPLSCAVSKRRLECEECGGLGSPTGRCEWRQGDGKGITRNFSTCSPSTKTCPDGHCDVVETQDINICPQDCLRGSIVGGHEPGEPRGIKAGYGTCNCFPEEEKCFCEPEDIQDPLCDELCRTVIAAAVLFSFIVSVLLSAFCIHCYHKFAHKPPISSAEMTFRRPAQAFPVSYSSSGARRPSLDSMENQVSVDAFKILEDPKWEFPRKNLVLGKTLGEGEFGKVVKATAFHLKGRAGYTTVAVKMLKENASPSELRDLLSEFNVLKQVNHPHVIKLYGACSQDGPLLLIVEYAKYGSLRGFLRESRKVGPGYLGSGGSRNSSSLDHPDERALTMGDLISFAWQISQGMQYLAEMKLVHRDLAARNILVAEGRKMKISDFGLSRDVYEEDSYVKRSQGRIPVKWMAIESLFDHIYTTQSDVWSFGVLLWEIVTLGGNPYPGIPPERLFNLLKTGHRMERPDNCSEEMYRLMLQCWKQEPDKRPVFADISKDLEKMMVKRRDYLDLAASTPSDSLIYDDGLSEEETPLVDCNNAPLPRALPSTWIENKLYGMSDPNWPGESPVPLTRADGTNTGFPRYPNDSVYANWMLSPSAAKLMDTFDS
# UniProt P08922, sequence (whole entry, looked up): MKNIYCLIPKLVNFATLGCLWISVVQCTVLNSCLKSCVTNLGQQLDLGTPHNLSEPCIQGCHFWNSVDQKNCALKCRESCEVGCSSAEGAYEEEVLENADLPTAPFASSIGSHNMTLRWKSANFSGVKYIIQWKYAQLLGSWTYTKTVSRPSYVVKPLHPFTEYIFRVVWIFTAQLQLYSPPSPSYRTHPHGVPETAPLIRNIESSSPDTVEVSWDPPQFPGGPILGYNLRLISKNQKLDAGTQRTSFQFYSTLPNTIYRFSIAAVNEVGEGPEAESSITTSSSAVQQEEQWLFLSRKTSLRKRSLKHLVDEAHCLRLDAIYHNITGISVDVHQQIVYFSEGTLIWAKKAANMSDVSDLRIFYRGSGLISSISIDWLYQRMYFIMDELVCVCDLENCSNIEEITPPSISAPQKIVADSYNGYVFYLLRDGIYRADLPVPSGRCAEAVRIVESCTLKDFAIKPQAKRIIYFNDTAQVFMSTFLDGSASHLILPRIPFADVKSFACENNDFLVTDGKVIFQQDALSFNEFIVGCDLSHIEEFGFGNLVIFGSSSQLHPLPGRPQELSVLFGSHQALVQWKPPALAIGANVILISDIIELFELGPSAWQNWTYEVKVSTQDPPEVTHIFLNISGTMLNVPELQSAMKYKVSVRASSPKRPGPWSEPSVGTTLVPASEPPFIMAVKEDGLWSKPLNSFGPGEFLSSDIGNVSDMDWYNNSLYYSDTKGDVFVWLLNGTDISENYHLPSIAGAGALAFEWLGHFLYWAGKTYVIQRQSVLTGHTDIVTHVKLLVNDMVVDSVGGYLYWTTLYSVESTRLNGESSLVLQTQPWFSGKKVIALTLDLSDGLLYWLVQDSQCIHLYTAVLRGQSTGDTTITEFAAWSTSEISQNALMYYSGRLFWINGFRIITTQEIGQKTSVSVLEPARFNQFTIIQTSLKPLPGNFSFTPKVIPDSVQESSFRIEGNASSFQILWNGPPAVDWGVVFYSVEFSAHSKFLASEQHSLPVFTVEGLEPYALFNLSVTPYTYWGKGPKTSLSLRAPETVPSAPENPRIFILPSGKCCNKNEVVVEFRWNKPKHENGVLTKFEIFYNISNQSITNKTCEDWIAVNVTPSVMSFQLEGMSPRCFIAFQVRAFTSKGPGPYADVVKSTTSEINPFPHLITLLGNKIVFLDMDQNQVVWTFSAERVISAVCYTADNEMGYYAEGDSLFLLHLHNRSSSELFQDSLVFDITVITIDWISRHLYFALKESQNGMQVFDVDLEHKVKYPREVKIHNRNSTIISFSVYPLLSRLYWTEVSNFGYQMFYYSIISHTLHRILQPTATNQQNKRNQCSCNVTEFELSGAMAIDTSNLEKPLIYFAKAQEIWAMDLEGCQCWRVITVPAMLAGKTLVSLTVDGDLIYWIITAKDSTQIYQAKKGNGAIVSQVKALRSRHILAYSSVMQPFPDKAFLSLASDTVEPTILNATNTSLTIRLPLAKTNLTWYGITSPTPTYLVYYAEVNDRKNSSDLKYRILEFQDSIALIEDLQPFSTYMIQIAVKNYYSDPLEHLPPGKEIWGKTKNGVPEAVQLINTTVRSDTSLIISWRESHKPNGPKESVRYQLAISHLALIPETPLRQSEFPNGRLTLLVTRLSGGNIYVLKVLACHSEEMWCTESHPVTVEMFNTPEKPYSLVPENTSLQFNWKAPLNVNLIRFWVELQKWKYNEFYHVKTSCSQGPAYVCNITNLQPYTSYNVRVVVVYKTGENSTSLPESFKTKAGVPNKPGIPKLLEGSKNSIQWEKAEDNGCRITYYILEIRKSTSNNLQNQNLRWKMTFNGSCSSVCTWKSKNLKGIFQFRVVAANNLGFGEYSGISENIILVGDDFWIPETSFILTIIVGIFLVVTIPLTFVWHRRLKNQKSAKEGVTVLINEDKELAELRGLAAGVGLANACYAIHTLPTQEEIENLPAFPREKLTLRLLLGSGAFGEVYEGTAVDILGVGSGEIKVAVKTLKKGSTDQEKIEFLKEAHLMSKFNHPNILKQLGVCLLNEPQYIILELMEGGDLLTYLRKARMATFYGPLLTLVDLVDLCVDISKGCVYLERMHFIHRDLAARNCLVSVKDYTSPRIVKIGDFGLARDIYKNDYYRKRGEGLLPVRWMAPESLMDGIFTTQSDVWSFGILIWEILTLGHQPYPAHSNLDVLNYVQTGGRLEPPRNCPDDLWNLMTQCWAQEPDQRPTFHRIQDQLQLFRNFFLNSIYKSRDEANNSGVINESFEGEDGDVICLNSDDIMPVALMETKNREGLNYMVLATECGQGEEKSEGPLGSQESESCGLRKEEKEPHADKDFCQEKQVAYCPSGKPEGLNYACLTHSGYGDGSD
# UniProt Q07912, sequence (whole entry, looked up): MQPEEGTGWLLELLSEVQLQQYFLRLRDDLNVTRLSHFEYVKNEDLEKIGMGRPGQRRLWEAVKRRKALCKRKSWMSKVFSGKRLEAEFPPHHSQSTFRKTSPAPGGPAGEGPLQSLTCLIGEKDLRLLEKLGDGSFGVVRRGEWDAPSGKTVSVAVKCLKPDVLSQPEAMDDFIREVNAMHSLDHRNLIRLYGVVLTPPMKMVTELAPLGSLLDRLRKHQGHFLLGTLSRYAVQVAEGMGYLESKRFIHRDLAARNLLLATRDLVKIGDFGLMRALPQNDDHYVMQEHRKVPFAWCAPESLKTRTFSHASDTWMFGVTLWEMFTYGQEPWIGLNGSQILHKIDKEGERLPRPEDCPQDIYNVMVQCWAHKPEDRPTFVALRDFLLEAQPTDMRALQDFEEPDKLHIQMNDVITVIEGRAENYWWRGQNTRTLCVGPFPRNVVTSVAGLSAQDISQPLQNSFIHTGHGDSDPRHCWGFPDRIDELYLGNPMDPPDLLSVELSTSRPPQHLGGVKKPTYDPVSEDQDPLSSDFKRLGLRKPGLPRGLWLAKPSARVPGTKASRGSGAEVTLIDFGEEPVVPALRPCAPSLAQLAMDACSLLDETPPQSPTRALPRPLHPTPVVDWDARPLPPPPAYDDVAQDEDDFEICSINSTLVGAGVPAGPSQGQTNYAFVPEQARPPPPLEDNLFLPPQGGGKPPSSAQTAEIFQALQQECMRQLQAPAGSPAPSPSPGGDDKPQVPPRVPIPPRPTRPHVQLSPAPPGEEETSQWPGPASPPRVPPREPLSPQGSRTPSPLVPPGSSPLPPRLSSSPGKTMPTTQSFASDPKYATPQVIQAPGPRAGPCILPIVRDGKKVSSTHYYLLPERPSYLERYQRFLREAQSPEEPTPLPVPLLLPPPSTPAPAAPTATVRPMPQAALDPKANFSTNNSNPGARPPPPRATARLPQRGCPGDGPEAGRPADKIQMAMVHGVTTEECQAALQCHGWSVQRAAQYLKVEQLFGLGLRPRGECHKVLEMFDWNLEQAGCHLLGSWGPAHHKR

# Set 1
# Compound: CS(=O)(=O)N1CCCC(NC(=O)[C@H](CCC2CCCCC2)NC(=O)c2ccc(CNc3ncnc4c3nnn4-c3ccccc3)cc2)C1 (some centres unmarked)
# Effect on: cell-free assay
# Technique: competition with immobilised ligand
# Tested at: 0.1 µM
target,remaining binding [%]
"MAPK3 (Homo sapiens, UniProt P27361)",89
"PRKCH (Homo sapiens, UniProt P24723)",79
"CSF1R (Homo sapiens, UniProt P07333)",100
"NEK6 (Homo sapiens, UniProt Q9HC98)",86
"PRKD2 (Homo sapiens, UniProt Q9BZL6)",92
"FGR (Homo sapiens, UniProt P09769)",88
"MAPK4 (Homo sapiens, UniProt P31152)",96

# Set 2
# SMILES: Cc1cc(Nc2cc(N3CCN(C)CC3)nc(Sc3ccc(NC(=O)C4CC4)cc3)n2)[nH]n1
# Tested at: 0.5 µM
target,effect on,mode,together with,baseline,remaining activity
"GRK5 (Homo sapiens, UniProt P34947)",enzyme activity,inhibitor,,control,104%
"RET (Homo sapiens, UniProt P07949)",enzyme activity,inhibitor,,control,3.91%
"TNK2 (Homo sapiens, UniProt Q07912)",kinase activity,,ATP 10 µM,untreated,66.4%
"ROS1 (Homo sapiens, UniProt P08922)",enzyme activity,inhibitor,,control,30.2%

# Further values, each from its own experiment
# SMN1 full length: SMN1, full length (human, UniProt Q16637, residues 1-294)
# UniProt Q16637, sequence (whole entry, looked up): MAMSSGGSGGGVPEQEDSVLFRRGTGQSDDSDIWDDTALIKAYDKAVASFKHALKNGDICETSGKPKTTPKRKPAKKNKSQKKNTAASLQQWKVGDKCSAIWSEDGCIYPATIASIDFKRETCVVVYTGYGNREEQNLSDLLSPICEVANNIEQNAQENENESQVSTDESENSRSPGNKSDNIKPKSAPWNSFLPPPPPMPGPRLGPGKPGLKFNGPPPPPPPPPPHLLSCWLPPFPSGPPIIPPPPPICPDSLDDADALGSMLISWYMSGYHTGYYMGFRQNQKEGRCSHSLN
Substance,tested on,assay,test system,setting,how to read,endpoint,value
GGGCUCACCACGCACUUGCCUUGCUUGCCAAACUUGGGGGCCUCACCACGGCAAGCU,SMN1 full length,nitrocellulose filter binding,"RNA, in vitro","100 nM, whole RNA, constant flanks, single concentration, ends assumed","baseline: round 9 selected pool, higher = stronger binding",relative RNA binding,3.9 % of pool
"SMARCA1 (Homo sapiens, UniProt P28370)","BAZ1B (Homo sapiens, UniProt Q9UIG0)",cross-linking MS,cell fractions,together with: DSSO,,cross-linked residues,K179 to K942
GGGCUCACCACGCACAGUACAAGGACGAGGAUAUGUGUGGCCUCACCACGGCAAGCU,SMN1 full length,nitrocellulose filter binding,"RNA, in vitro","100 nM, whole RNA, constant flanks, single concentration, ends assumed","baseline: round 9 selected pool, higher = stronger binding",relative RNA binding,27 % of pool
